Published values of several laboratories.
Every numbered part comes from another study and shows a few of its results, in no order.
Sequence of UniProt P25100 (whole entry, looked up): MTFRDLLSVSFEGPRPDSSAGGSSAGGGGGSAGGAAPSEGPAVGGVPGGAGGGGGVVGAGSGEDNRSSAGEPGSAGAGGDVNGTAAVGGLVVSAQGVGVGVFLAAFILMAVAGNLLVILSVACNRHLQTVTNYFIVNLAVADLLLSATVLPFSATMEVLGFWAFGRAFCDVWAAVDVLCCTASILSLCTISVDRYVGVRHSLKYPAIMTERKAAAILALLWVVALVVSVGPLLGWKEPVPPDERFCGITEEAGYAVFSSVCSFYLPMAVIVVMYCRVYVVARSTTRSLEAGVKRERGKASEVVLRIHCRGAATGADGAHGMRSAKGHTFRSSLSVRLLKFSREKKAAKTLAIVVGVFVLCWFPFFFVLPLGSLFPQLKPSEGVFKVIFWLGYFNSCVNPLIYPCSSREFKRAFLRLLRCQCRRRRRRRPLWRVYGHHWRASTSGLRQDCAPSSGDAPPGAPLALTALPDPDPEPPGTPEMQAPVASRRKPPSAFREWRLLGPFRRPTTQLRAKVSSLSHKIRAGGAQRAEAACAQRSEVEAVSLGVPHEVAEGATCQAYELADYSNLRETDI
Sequence of UniProt Q01726 (whole entry, looked up): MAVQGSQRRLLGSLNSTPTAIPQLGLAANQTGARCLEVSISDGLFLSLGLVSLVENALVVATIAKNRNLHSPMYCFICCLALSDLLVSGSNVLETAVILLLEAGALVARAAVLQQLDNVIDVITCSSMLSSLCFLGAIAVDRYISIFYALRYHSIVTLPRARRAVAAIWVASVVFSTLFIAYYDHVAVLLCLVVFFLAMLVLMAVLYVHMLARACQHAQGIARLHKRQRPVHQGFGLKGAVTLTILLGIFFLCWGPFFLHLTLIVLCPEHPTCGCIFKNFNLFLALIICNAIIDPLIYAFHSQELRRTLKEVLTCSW
Sequence of UniProt P07550 (whole entry, looked up): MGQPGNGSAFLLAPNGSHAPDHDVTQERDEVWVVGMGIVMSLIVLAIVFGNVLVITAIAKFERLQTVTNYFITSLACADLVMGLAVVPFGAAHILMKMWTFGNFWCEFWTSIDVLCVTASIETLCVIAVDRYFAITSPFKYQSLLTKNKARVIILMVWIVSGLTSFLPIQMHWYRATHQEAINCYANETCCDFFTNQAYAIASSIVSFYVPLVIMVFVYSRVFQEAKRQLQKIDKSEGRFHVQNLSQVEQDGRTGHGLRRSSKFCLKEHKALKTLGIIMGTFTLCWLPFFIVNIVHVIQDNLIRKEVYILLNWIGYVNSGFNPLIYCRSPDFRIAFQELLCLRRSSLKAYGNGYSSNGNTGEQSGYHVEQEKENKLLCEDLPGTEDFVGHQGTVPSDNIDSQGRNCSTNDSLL
Sequence of UniProt Q02643 (whole entry, looked up): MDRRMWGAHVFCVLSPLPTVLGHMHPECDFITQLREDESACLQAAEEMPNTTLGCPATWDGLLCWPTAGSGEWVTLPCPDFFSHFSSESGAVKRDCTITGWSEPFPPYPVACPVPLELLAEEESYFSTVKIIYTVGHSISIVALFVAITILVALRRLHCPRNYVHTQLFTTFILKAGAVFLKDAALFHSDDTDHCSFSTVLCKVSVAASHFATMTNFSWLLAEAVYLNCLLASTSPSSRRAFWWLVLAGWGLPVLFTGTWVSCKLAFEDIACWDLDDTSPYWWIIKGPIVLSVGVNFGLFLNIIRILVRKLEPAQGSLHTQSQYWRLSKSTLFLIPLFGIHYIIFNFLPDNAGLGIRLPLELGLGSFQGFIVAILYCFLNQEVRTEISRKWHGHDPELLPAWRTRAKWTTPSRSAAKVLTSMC
Sequence of UniProt P35348 (whole entry, looked up): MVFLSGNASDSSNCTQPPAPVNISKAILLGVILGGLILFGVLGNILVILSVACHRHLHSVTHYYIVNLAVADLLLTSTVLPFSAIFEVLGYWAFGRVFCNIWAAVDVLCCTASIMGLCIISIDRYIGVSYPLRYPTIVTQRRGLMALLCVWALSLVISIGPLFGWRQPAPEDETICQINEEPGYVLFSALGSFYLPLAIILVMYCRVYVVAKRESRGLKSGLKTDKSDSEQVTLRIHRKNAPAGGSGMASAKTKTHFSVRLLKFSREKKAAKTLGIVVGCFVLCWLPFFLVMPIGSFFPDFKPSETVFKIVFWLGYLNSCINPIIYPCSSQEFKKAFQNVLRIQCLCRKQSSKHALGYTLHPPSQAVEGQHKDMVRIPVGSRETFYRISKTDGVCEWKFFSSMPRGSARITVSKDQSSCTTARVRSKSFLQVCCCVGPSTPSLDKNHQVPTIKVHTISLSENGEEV
Sequence of UniProt Q15743 (whole entry, looked up): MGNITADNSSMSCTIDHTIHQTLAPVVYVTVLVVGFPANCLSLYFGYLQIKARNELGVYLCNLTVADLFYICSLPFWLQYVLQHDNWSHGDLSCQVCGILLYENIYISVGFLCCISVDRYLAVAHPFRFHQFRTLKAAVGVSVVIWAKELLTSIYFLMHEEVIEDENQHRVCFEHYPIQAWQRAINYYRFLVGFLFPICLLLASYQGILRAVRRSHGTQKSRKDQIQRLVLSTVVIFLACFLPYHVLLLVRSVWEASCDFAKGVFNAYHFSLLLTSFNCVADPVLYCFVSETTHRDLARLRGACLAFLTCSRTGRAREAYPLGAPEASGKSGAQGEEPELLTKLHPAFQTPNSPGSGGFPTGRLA
Sequence of UniProt Q9Y5N1 (whole entry, looked up): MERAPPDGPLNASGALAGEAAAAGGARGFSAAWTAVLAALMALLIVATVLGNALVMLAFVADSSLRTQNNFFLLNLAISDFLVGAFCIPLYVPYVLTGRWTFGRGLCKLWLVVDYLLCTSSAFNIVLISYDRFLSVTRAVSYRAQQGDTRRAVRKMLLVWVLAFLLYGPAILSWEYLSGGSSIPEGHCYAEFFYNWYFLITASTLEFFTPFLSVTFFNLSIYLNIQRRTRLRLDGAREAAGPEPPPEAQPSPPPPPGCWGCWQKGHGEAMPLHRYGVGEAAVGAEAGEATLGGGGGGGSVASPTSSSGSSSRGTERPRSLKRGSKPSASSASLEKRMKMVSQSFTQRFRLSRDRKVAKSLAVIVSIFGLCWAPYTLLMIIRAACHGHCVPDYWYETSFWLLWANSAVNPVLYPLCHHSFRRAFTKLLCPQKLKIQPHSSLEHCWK
Sequence of UniProt P35462 (whole entry, looked up): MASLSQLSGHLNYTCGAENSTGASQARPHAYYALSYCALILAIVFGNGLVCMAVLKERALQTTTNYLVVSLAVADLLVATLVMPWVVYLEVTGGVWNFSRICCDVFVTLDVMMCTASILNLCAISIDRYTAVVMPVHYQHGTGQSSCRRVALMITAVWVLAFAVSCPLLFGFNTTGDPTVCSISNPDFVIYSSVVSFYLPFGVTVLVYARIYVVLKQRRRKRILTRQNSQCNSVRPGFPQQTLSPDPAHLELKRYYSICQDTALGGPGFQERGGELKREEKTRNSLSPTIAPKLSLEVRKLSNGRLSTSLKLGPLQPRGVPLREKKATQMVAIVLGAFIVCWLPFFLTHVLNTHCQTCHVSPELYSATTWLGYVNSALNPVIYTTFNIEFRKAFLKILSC
Sequence of UniProt P32249 (whole entry, looked up): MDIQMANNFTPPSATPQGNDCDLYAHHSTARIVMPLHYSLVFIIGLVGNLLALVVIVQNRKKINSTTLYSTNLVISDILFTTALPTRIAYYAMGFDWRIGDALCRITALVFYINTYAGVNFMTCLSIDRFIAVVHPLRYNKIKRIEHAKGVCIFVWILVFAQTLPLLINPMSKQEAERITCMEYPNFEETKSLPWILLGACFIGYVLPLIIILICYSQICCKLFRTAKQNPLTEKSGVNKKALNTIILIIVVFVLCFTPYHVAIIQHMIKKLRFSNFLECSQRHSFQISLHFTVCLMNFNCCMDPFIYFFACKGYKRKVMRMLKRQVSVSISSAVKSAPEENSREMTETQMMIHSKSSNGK
Sequence of UniProt P18825 (whole entry, looked up): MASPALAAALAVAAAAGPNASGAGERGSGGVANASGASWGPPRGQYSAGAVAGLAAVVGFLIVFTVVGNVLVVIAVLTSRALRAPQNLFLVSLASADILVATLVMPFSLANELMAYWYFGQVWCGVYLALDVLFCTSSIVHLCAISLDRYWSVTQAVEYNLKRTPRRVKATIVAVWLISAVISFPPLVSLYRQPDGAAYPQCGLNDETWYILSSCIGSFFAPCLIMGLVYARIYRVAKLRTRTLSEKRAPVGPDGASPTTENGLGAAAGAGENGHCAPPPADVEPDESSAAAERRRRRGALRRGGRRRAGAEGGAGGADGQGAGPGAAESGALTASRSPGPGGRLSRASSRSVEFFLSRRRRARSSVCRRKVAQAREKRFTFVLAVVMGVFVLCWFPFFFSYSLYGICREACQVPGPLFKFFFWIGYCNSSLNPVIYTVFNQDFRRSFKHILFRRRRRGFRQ
Sequence of UniProt O15354 (whole entry, looked up): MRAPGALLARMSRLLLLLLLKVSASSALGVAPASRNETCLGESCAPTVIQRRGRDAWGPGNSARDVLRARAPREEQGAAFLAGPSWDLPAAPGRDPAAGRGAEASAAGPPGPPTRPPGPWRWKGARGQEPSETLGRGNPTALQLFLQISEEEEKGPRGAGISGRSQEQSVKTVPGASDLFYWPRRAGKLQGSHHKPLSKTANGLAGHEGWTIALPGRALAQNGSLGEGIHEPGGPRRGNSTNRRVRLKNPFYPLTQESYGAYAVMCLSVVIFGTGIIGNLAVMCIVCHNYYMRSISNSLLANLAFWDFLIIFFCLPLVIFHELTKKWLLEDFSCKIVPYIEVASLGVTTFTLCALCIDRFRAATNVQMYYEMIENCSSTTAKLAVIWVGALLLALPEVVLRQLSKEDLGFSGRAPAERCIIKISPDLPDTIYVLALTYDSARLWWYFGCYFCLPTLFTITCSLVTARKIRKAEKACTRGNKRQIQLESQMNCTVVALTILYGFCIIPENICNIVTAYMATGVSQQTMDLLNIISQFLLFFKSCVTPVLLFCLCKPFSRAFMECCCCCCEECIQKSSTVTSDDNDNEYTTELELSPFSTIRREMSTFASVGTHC

Sample 1
Species: human
Medium: microsomes or S9
Concentration: 2 µM
Time: 0.5 h
Structure (SMILES)	remaining compound [%]
c1ccc(C(CCNc2ncnc3[nH]cnc23)c2ccccc2)cc1	45.3
Cc1n[nH]c(C)c1CCC(=O)NCc1c(F)cccc1F	71.8
CS(=O)(=O)n1c(-c2ccccc2)c(C#Cc2ccccc2)c2ccccc21	> 99
Cc1cccc(NC(=O)C2CCCN(S(=O)(=O)c3c[nH]c(C(=O)N4CCCC4)c3)C2)c1C (stereo not shown)	10.4
NS(=O)(=O)c1ccc(Nc2ccc3cc(S(=O)(=O)N4CCCCC4)ccc3n2)cc1	1.87
CC1(C)CC(NC(=O)c2cccc(Br)c2)CC(C)(C)N1	9.68
O=C(Nc1ccc(-n2cnc3ccccc32)cc1)c1nc2ncccn2n1	73.8
CC(=O)N1N=C(c2c(-c3ccccc3)c3ccccc3[nH]c2=O)CC1c1ccnc2ccccc12 (stereo not shown)	55.5
Cc1ccc2nc(Nc3nc(C)cc(C(F)(F)F)n3)nc(C)c2c1	9.94
CCc1cc2c3c([nH]c2cc1S(=O)(=O)N1CCN(C)CC1)CC(C)(C)CC3=O	83.6
CCN1C(=O)CCC2(C(=O)NCCN(C)C3CCCCC3)CCCC=C12 (stereo not shown)	67.5
O=C1C(c2cnc3ccccc3c2)=C(c2cc(F)cc(F)c2)c2ccc(OCCN3CCS(=O)(=O)CC3)cc21	44.3
O=C1NN=C(c2ccc(OCCN3CCOCC3)cc2)CC1c1ccc(Cl)cc1 (stereo not shown)	44.5
CCC(=O)N1CCN(c2cc(-n3cnc(C)c3C)nc(C)n2)CC1	92.5

Sample 2
Compound: NS(=O)(=O)c1cc(NC(=O)C2(c3ccccc3Cl)CC2)ccc1Oc1cccc(Cl)c1
Effect on: cell-free assay
Concentration: 10 µM
target	inhibition
Muscarinic acetylcholine receptor M4 (CHRM4, Homo sapiens, UniProt P08173)	-1.95%
Muscarinic acetylcholine receptor M2 (CHRM2, Homo sapiens, UniProt P08172)	2.03%
Alpha-1A adrenergic receptor (ADRA1A, Homo sapiens, UniProt P35348)	15.1%
D(3) dopamine receptor (DRD3, Homo sapiens, UniProt P35462)	10.5%
Histamine H1 receptor (HRH1, Homo sapiens, UniProt P35367)	17.9%
Histamine H2 receptor (HRH2, Homo sapiens, UniProt P25021)	11.5%
Alpha-2C adrenergic receptor (ADRA2C, Homo sapiens, UniProt P18825)	89.6%
Muscarinic acetylcholine receptor M5 (CHRM5, Homo sapiens, UniProt P08912)	14.7%
Alpha-2A adrenergic receptor (ADRA2A, Homo sapiens, UniProt P08913)	40.8%
D(4) dopamine receptor (DRD4, Homo sapiens, UniProt P21917)	27%
Sigma non-opioid intracellular receptor 1 (SIGMAR1, Homo sapiens, UniProt Q99720)	18.6%
D(2) dopamine receptor (DRD2, Homo sapiens, UniProt P14416)	-9.74%
Histamine H3 receptor (HRH3, Homo sapiens, UniProt Q9Y5N1)	3.87%
Beta-3 adrenergic receptor (ADRB3, Homo sapiens, UniProt P13945)	-5.77%
Beta-2 adrenergic receptor (ADRB2, Homo sapiens, UniProt P07550)	-10.7%
Alpha-1D adrenergic receptor (ADRA1D, Homo sapiens, UniProt P25100)	6.88%
D(1A) dopamine receptor (DRD1, Homo sapiens, UniProt P21728)	3.57%
Histamine H4 receptor (HRH4, Homo sapiens, UniProt Q9H3N8)	0.09%
Alpha-1B adrenergic receptor (ADRA1B, Homo sapiens, UniProt P35368)	-8.97%
Sigma intracellular receptor 2 (TMEM97, Homo sapiens, UniProt Q5BJF2)	82%

Sample 3
SMILES: N=C(N)NC(=O)c1cnn(-c2cccc3ncccc23)c1C1CC1
Effect on: β-arrestin recruitment
Mode: agonist
Technique: PRESTO-Tango
Concentration: 10 µM
Relative to: untreated
target	fold over basal
C-X-C chemokine receptor type 3 (CXCR3, Homo sapiens, UniProt P49682)	0.97
Neuromedin-U receptor 1 (NMUR1, Homo sapiens, UniProt Q9HB89)	1.54
Lysophosphatidic acid receptor 6 (Homo sapiens, UniProt P43657)	0.95
MRGPRD (Homo sapiens, UniProt Q8TDS7)	0.86
Melanocyte-stimulating hormone receptor (MC1R, Homo sapiens, UniProt Q01726)	0.76
Leukotriene B4 receptor 1 (LTB4R, Homo sapiens, UniProt Q15722)	0.91
Neuropeptide S receptor (NPSR1, Homo sapiens, UniProt Q6W5P4)	1.13
P2Y purinoceptor 13 (P2RY13, Homo sapiens, UniProt Q9BPV8)	1.15
Growth hormone-releasing hormone receptor (GHRHR, Homo sapiens, UniProt Q02643)	0.72 fold
Proto-oncogene Mas (Homo sapiens, UniProt P04201)	1.03
C-C chemokine receptor-like 2 (Homo sapiens, UniProt O00421)	1.17
5-hydroxytryptamine receptor 7 (HTR7, Homo sapiens, UniProt P34969)	1.14
C-X-C chemokine receptor type 6 (CXCR6, Homo sapiens, UniProt O00574)	0.98
GPR37 (Homo sapiens, UniProt O15354)	1.04
5-hydroxytryptamine receptor 2C (HTR2C, Homo sapiens, UniProt P28335, I156V/I160V)	0.55
N-arachidonyl glycine receptor (GPR18, Homo sapiens, UniProt Q14330)	0.86
G-protein coupled receptor 68 (GPR68, Homo sapiens, UniProt Q15743)	0.83
5-hydroxytryptamine receptor 2B (HTR2B, Homo sapiens, UniProt P41595)	1.12
Probable G-protein coupled receptor 34 (Homo sapiens, UniProt Q9UPC5)	0.96
G-protein coupled receptor 183 (GPR183, Homo sapiens, UniProt P32249)	1.21
Probable G-protein coupled receptor 63 (GPR63, Homo sapiens, UniProt Q9BZJ6)	0.67

Sample 4
Target: Dual specificity tyrosine-phosphorylation-regulated kinase 1A (DYRK1A, Homo sapiens, UniProt Q13627)
Effect on: enzyme activity
Mode: inhibitor
Concentration: 0.5 µM
Relative to: control
Compound	remaining activity [%]
O=C1NC(=O)c2c1c1c3ccccc3[nH]c1n1cncc21	89.1
CCCCc1c(-c2ccc(OC)cc2)[nH]c2nccnc12	102
Cc1cc(Nc2cc(N3CCN(C)CC3)nc(Sc3ccc(NC(=O)C4CC4)cc3)n2)[nH]n1	98.4
N#Cc1cnc2cnc(NCc3cccnc3)cc2c1Nc1ccc(F)c(Cl)c1	52.7
COc1cccc(-c2cc(=O)c3ccccc3o2)c1N	94
O=Nc1c(-c2c(O)[nH]c3cc(Br)ccc23)[nH]c2ccccc12	101
O=c1cc(N2CCOCC2)oc2c(-c3ccccc3)cccc12	97.3
COc1ccc2c(c1)c(C1=C(c3c[nH]c4ccccc34)C(=O)NC1=O)cn2CCCN(C)C	84.7
CCCNC(=O)Nc1ccc(Oc2ncnc3cc(OC)c(OC)cc23)cc1Cl	96.9
c1ccc(-c2n[nH]c3c2oc2ccccc23)cc1	114
CN(C)S(=O)(=O)c1ccc2c(c1)/C(=C/c1cc3c([nH]1)CCCC3)C(=O)N2	81.1
Oc1cccc(-c2nc(N3CCOCC3)c3oc4ncccc4c3n2)c1	94.3
O=C1Nc2ccccc2/C1=C\c1c(Cl)[nH]c2ccccc12	107
O=C(c1cc2cc(O)ccc2[nH]1)c1cc2cc(O)ccc2[nH]1	103
O=C1NC(=O)c2c1c1c3ccccc3[nH]c1c1[nH]c3cc(Br)ccc3c21	84
Cc1ccc(S(=O)(=O)/C=C/C#N)cc1	107
CN1CCN(c2ccc3nc(-c4c(N)c5c(F)cccc5[nH]c4=O)[nH]c3c2)CC1	96.5
O=C1Cc2c([nH]c3ccc(Br)cc23)-c2ccccc2N1	98.8
COc1ccc(COc2ccc(Cc3cnc(N)nc3N)cc2OC)cc1	88.1
O=C1Nc2ccc(Br)cc2/C1=C/c1cc2c([nH]1)CCCC2	87.1
c1ccc2c(-c3ccncc3)c[nH]c2c1	77.6

Some of these lines once more (sample 4):
Compound	remaining activity [%]
COc1ccc(COc2ccc(Cc3cnc(N)nc3N)cc2OC)cc1	88.1
c1ccc2c(-c3ccncc3)c[nH]c2c1	77.6
c1ccc(-c2n[nH]c3c2oc2ccccc23)cc1	114
Oc1cccc(-c2nc(N3CCOCC3)c3oc4ncccc4c3n2)c1	94.3
O=C1Cc2c([nH]c3ccc(Br)cc23)-c2ccccc2N1	98.8
O=C1NC(=O)c2c1c1c3ccccc3[nH]c1c1[nH]c3cc(Br)ccc3c21	84
O=C1NC(=O)c2c1c1c3ccccc3[nH]c1n1cncc21	89.1
O=C(c1cc2cc(O)ccc2[nH]1)c1cc2cc(O)ccc2[nH]1	103
COc1cccc(-c2cc(=O)c3ccccc3o2)c1N	94
CN(C)S(=O)(=O)c1ccc2c(c1)/C(=C/c1cc3c([nH]1)CCCC3)C(=O)N2	81.1
Cc1cc(Nc2cc(N3CCN(C)CC3)nc(Sc3ccc(NC(=O)C4CC4)cc3)n2)[nH]n1	98.4
CN1CCN(c2ccc3nc(-c4c(N)c5c(F)cccc5[nH]c4=O)[nH]c3c2)CC1	96.5
